Results collected from several papers.
Numbered parts are unrelated; each lists some results of a single study. Positions count from the first letter of the parent shown.
UniProt P78362, sequence (whole entry, looked up): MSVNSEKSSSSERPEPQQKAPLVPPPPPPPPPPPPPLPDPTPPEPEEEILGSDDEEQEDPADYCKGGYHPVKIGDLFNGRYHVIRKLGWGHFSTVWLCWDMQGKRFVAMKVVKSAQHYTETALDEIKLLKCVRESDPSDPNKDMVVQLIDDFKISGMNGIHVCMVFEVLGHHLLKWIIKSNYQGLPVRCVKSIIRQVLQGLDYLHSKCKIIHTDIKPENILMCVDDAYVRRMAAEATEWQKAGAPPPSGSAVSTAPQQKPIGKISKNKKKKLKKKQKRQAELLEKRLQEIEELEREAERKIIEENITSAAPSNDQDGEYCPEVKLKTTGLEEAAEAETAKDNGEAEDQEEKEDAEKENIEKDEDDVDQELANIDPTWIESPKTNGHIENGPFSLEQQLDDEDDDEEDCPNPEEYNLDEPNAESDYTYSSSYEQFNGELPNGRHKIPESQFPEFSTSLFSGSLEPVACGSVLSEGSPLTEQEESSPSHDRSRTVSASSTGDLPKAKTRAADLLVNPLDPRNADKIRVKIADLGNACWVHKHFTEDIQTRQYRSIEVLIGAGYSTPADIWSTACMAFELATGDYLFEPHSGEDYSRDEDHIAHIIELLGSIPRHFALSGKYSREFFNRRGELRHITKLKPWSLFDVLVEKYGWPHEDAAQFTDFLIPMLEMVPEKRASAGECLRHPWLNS

Series 1
Target: Prothrombin, mature alpha-thrombin (F2, Homo sapiens, UniProt P00734)
Method: aptamer microarray, sandwich
Form: DNA with 2'F-ANA
Matrix: in vitro
Tested at: 200 nM
Setting: whole 15-mer aptamer, many near background
Together with: Cy3 exosite-II aptamer, 400 nM
Direction: higher = stronger binding
Strand: GGTTGGTGTGGTTGG
Modification	mean fluorescence intensity
2'F-ANA at 5 6 7 8 9 13 14	45.5 a.u.
2'F-ANA at 2 5 6 12 13	103 a.u.
2'F-ANA at 2 3 4 9 10 11 12 14	209 a.u.
2'F-ANA at 4 5 7 10 12 13 14	45.3 a.u.
2'F-ANA at 2 3 4 5 6 8 9 12 13 14	51.6 a.u.
2'F-ANA at 1 3 5 7 8 9 10 12 14	49.5 a.u.
2'F-ANA at 1 2 4 8 10 12	59.9 a.u.
2'F-ANA at 1 2 3 4 11 13	125 a.u.

Series 2
Target: FOXO3, forkhead domain (mouse, UniProt Q9WVH4, residues 31-263)
UniProt Q9WVH4, sequence (31-263, looked up): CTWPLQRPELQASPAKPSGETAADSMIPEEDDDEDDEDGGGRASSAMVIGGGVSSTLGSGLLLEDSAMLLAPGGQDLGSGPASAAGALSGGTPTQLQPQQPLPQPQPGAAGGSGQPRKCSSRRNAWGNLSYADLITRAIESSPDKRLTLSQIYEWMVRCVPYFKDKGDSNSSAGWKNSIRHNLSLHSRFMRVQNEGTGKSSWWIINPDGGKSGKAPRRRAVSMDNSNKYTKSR
Method: protein-binding microarray
Form: hairpin DNA
Matrix: in vitro
Tested at: not given
Setting: whole hairpin DNA, median over replicate spots
Reference: not given
Direction: higher = stronger binding
Strand	median fluorescence [a.u.]
GAGGCCACGCAAACAACGCCTCCTGGCGTTGTTTGCGTGGCCTCACACTC (5mC at 8)	5050
GAGGCCATCGAACCAACGCCTCCTGGCGTTGGTTCGATGGCCTCACACTC (5mC at 9 35)	4310
GAGGCCATGTAAACAACGCCTCCTGGCGTTGTTTACATGGCCTCACACTC (5mC at 14)	5210
GAGGCCATGAAACCAACGCCTCCTGGCGTTGGTTTCATGGCCTCACACTC	3990
GAGGCCCGGTAACCAACGCCTCCTGGCGTTGGTTACCGGGCCTCACACTC (5mC at 37)	4540
GAGGCCACGTAAACAACGCCTCCTGGCGTTGTTTACGTGGCCTCACACTC (5mC at 8 36)	5020
GAGGCCATGTACGCAACGCCTCCTGGCGTTGCGTACATGGCCTCACACTC (5mC at 12)	4310
GAGGCCATGGAAACAACGCCTCCTGGCGTTGTTTCCATGGCCTCACACTC	4470

Series 3
Substitution: M68T
Target: ABI1, truncated, D143A, DHFR fusion (Arabidopsis thaliana)
Method: DHFR PCA, deep sequencing
Matrix: yeast
Setting: methotrexate growth selection, single substitutions
Reference: wild-type fitted maximum
Direction: higher = stronger binding
Starting sequence: PYL1, truncated, DHFR fusion (Arabidopsis thaliana); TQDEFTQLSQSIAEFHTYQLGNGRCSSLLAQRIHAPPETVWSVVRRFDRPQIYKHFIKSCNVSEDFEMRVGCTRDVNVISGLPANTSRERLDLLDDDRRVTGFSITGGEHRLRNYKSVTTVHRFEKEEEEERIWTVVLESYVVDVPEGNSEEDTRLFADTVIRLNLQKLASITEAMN; partner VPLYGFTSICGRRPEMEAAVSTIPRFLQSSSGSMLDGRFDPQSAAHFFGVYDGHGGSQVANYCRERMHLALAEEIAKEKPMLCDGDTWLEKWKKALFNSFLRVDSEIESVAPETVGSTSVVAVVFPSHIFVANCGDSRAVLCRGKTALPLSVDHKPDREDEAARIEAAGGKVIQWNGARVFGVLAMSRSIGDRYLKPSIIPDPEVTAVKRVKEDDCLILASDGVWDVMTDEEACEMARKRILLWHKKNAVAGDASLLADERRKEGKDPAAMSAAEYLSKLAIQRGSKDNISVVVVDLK
conditions	relative binding score
together with: (+)-ABA 0.032 µM	13.9%
together with: (+)-ABA 17 µM	66.1%
together with: (+)-ABA 0 µM	4.48%
together with: (+)-ABA 4.8 µM	42.6%
together with: (+)-ABA 0.0091 µM	4.63%
together with: (+)-ABA 58 µM	76.8%

Mixed results
Structure (SMILES)	target	assay	conditions	endpoint	value
C[C@H](NC(=O)c1cnc2n1[C@](C)(Cc1ccc(C#N)cc1)C(=O)N2c1cc(Cl)c(F)c(Cl)c1)C(=O)NC1(c2ccccn2)CC1	SRSF protein kinase 2 (SRPK2, Homo sapiens, UniProt P78362)	cell-free assay, competition with immobilised ligand	1 µM	remaining binding	100%

A few entries again (series 2):
Strand	median fluorescence [a.u.]
GAGGCCACGTAAACAACGCCTCCTGGCGTTGTTTACGTGGCCTCACACTC (5mC at 8 36)	5020
GAGGCCATGTACGCAACGCCTCCTGGCGTTGCGTACATGGCCTCACACTC (5mC at 12)	4310
GAGGCCATGGAAACAACGCCTCCTGGCGTTGTTTCCATGGCCTCACACTC	4470
